Experimental data pooled from the literature.
Lines come from different studies, so protocols differ. “And” joins repeats or separate records; there may be more than shown.
USP5: Ubiquitin carboxyl-terminal hydrolase 5 (USP5, Homo sapiens, UniProt P45974)
Sequence of UniProt P45974 (whole entry, looked up): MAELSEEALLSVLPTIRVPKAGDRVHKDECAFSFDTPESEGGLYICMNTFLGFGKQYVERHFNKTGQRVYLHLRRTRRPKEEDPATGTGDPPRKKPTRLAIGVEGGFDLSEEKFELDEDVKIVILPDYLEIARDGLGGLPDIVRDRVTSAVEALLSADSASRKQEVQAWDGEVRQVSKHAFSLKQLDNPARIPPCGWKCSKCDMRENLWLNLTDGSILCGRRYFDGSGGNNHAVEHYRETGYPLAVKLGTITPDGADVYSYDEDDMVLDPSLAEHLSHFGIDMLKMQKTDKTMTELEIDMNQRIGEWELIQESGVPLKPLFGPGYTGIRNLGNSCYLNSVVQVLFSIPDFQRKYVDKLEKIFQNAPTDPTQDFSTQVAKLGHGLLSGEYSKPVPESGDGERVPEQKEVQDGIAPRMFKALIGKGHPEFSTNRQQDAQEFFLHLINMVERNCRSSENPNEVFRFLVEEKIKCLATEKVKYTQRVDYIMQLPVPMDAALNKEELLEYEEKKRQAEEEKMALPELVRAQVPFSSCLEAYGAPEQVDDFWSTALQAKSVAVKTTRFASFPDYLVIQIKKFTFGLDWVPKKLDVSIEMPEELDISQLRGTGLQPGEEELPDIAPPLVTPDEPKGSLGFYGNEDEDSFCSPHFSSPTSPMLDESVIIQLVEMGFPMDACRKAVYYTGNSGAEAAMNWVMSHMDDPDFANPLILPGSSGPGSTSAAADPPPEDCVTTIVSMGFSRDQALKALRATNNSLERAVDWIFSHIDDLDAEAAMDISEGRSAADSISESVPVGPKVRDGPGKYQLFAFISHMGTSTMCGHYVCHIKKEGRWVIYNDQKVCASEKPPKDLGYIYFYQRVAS
PTGS2: Prostaglandin G/H synthase 2 (PTGS2, Homo sapiens, UniProt P35354)
Sequence of UniProt P35354 (whole entry, looked up): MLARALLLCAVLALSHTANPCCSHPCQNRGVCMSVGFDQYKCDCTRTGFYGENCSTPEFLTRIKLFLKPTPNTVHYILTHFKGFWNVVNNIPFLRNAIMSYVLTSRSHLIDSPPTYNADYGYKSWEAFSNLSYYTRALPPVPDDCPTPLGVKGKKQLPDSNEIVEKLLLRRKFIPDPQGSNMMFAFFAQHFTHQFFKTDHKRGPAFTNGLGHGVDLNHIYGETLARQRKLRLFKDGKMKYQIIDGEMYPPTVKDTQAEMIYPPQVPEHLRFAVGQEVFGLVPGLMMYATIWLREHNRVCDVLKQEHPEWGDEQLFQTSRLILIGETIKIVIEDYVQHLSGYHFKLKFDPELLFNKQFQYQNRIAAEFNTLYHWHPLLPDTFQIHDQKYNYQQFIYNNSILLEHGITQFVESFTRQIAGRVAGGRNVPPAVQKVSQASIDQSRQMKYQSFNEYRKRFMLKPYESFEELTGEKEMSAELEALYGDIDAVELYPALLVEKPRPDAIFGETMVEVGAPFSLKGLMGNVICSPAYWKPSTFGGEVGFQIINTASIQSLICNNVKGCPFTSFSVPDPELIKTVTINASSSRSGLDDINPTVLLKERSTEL
Sequence of UniProt Q02127 (whole entry, looked up): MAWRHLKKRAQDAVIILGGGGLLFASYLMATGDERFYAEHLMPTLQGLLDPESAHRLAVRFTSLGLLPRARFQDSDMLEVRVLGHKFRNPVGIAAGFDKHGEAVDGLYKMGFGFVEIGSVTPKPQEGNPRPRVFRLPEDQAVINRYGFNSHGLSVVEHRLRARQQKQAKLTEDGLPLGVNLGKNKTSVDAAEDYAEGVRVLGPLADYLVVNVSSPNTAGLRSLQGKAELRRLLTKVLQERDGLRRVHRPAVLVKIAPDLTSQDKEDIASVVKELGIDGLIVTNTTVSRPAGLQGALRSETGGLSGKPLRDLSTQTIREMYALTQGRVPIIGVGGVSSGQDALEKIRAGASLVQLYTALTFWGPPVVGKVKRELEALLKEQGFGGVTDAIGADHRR
Sequence of UniProt P35414 (whole entry, looked up): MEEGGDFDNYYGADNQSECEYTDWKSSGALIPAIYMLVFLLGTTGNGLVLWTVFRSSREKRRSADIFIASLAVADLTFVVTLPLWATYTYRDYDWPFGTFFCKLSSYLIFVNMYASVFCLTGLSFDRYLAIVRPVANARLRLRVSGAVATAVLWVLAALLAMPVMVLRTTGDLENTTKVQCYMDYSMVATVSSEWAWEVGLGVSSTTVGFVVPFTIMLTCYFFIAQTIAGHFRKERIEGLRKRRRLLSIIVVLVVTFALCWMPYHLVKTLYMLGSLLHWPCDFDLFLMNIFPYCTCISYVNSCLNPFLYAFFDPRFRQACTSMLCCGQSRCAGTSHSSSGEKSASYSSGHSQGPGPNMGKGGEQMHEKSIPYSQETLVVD
Sequence of UniProt O60678 (whole entry, looked up): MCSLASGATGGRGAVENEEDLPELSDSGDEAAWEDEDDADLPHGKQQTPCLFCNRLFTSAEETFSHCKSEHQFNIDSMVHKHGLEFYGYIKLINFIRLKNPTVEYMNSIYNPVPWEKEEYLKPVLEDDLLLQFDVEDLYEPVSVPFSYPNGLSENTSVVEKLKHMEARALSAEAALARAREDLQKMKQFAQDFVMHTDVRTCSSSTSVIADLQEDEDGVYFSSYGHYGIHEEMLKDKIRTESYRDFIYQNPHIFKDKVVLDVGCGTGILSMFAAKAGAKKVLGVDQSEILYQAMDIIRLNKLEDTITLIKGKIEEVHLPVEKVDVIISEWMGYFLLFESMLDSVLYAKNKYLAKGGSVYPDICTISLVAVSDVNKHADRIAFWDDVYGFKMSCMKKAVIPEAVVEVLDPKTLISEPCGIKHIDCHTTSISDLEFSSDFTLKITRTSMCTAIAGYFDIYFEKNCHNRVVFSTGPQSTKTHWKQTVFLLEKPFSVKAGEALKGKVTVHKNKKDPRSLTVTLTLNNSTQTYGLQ
Sequence of UniProt O75762 (whole entry, looked up): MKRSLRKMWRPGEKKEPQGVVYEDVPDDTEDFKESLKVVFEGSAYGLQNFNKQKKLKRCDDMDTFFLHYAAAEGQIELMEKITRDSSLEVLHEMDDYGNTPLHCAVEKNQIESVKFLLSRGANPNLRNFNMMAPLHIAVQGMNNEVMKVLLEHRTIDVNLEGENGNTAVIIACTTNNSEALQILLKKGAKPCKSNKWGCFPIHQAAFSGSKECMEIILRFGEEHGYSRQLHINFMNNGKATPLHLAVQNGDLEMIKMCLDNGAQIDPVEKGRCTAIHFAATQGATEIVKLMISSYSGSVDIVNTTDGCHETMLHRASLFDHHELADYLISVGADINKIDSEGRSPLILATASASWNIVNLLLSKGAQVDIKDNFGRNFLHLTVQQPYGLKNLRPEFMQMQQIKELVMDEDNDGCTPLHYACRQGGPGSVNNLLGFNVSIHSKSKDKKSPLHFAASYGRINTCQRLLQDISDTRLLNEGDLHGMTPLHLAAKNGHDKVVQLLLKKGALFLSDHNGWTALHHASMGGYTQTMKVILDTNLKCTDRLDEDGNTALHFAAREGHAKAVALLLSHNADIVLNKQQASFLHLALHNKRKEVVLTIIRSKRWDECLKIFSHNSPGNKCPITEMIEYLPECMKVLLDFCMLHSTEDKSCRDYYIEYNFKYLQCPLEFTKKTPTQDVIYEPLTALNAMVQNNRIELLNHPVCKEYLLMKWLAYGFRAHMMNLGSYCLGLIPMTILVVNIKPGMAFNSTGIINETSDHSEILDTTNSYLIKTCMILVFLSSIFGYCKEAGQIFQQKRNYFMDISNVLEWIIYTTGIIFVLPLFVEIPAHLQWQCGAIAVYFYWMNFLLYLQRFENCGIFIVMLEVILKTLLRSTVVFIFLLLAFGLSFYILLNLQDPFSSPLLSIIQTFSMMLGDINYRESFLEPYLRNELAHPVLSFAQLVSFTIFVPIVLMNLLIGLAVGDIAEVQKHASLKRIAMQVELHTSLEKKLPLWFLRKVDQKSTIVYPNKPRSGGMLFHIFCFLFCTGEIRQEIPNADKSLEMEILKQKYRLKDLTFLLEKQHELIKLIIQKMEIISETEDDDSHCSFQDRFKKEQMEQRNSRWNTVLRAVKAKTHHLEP

O=C1c2sc(-c3ccc(N4CCC(F)C4)nc3F)nc2CCN1c1cccnc1 (stereo not shown) — inhibition (TNF-alpha (human); radioligand binding, BioPrint binding panel; 1 µM, together with: agonist radioligand): -1%
CC(=O)C12NC(C)(C)CC1(C)C(=O)C1=C2c2c(c3c4n2C(C)(C)CC2=C4C4(CC(C)(C)NC(C)(C4)C2=O)CC3(C)C)C(=O)C(C)(C)N1 (single isomer, unassigned; (-)) — inhibition (Transient receptor potential cation channel subfamily A member 1 (TRPA1, Homo sapiens, UniProt O75762); ion current, inhibitor, patch clamp; HEK-293T; 50 µM): 3.56%
CC(NC1=C(C(=O)/C=C/c2ccccc2)C(=O)CC(C)(C)C1)C(=O)O (stereo not shown) — inhibition (USP5; enzyme activity, inhibitor; 17 µM): 8%
C/C=C(/C)C(=O)O[C@@H]1C=C(C)CC[C@]2(O)[C@@H](C(C)C)CC(=O)[C@]12C — inhibition (PTGS2; enzyme activity, inhibitor; 0.12 µg/mL): 0%
Cc1nn(-c2cccc(N)c2)c(=O)c2cnc(Nc3ccc(N4CCNCC4)cc3)nc12 — IC50 (Calcium/calmodulin-dependent protein kinase type II subunit alpha (CAMK2A, Homo sapiens, UniProt Q9UQM7); SelectScreen kinase): > 10000 nM
Nc1ncc(-c2cc(-c3cnn(CC(F)(F)F)c3)ncc2F)nc1C(=O)NC1CNCC(F)C1 (stereo not shown) — remaining binding (TSSK1B; KINOMEscan; 1 µM; baseline: DMSO control): 72%
COc1cccc(-c2cc(F)c(NC(=O)Nc3sc(C)nc3C(=O)O)c(F)c2)c1 — inhibition (Dihydroorotate dehydrogenase (quinone), mitochondrial (DHODH, Homo sapiens, UniProt Q02127); enzyme activity, DCIP colorimetric; 10.00 µM): 38.2% and 43.3% and 38.1%
Cc1ncsc1-c1ccc(C(C)NC(=O)C2CC(O)CN2C(=O)C(NC(=O)CCCCCCCCCCN2CCCC(Nc3ncc(Cl)c(Nc4ccccc4S(=O)(=O)C(C)C)n3)C2)C(C)(C)C)cc1 (stereo not shown) — log2 fold change (22Rv1; RNA-seq, item: ZNF70 mRNA; concentration not given; baseline: DMSO): -1.68
C=C(NC(=O)c1csc(-c2nc3c(cc2O)-c2nc(cs2)C(=O)NC(C(C)O)C(=O)NC(=C(C)OC)c2nc(cs2)C(=O)NC2c4nc(cs4)C(=O)NC(COC(=O)c4c5c6c(cccc6n4O)COC(=O)C(OC4CC(C)(O)C(N(C)C)C(C)O4)C2OC5)c2nc-3cs2)n1)C(N)=O (stereo not shown) — volume of distribution (Sprague-Dawley rat, both sexes, plasma; intravenous infusion, 18 mg/kg single dose): 29.8 L/kg
O=C(COCC(F)F)Nc1ccc([C@H]2[C@@H](F)[C@@H](F)C[C@@H](F)[C@H]2F)cc1 — hepatic clearance (hepatocyte stability; cryopreserved mouse hepatocytes; 1 µM): 84 mL/min/kg
O=C(O)C(=CC(=O)c1ccccc1)Nc1ccccc1 — inhibition (USP5; enzyme activity, inhibitor; 17 µM): 18%
CO[C@@H]1OC[C@@H](O)[C@H](O)[C@H]1O — inhibition (PTGS2; enzyme activity, inhibitor; 7.81 µg/mL): 56.9%
Nc1ccc(N2CCOCC2)c2nonc12 — inhibition (USP5; enzyme activity, inhibitor; 17 µM): 94%
O=C1c2sc(-c3ccc(N4CCC(CO)CC4)nc3F)nc2CCN1c1cccnc1 — inhibition (Apelin receptor (APLNR, Homo sapiens, UniProt P35414); ligand displacement, radioligand; 1 µM): 5%
CNS(=O)(=O)Nc1nccc(Cc2c(C)c3ccc(Oc4ncccc4F)cc3oc2=O)c1F — IC50 (SK-MEL-2; cell viability; 7 days): 3.66 nM
C/C=C/C(=O)Nc1ccc2nc(NCCCCCN(C)C)nc(NCCCCCCN(C)C)c2c1 — inhibition (Protein arginine N-methyltransferase 3 (PRMT3, Homo sapiens, UniProt O60678); enzyme activity, inhibitor, radiometric; 50 µM): 86%
CCOC(=O)C1(C2(O)C(=O)c3ccccc3C2=O)CCCC1=O (stereo not shown) — inhibition (USP5; enzyme activity, inhibitor; 17 µM): 15%
C[Si](C)(C)C[C@H](CN)CC(=O)O — inhibition (alpha2 adrenergic receptor, rat; binding, radioligand binding; 250 µM, together with: [3H]rauwolscine): -5%
C=CC(=O)Nc1cccc(Cn2ncc3cnc(Nc4cnn(CCOC)c4)nc32)c1 — percent of control (RIPK1 human; binding, KINOMEscan; 100 nM; lower = stronger binding): 92%
O=C1CC(=O)c2ccc3c4c(ccc1c24)C(=O)CC3=O — inhibition (USP5; enzyme activity, inhibitor; 17 µM): 91%
CN(C)C/C=C/C(=O)Nc1ccc2nc(NCCCCCN(C)C)nc(NCCCCCCN(C)C)c2c1 — inhibition (DNA (cytosine-5)-methyltransferase 3A, with DNMT3L (DNMT3A, Homo sapiens, UniProt Q9Y6K1); enzyme activity; 10 µM): -69%
CC=C(C)C(=O)OC1CC2C(C=C(C)C3C(OC(C)=O)CC(=O)C13C)OC(=O)C2C (stereo not shown) — inhibition (PTGS2; enzyme activity, inhibitor; 0.98 µg/mL): 0%

Repeated from above:
O=C1CC(=O)c2ccc3c4c(ccc1c24)C(=O)CC3=O — inhibition (USP5; enzyme activity, inhibitor; 17 µM): 91%
O=C(COCC(F)F)Nc1ccc([C@H]2[C@@H](F)[C@@H](F)C[C@@H](F)[C@H]2F)cc1 — hepatic clearance (hepatocyte stability; cryopreserved mouse hepatocytes; 1 µM): 84 mL/min/kg
